Experimental data collected from several papers.
Each line is one published result; not all experiments were run side by side. ± gives the spread as reported.

SMILES	assay	test system	conditions	Tmax [h]
CN1CCC[C@]1(C)/C=C/S(=O)(=O)NC(=O)Nc1c2c(cc3c1CCC3)CCC2	–	human, plasma	oral, 100 mg, single dose	1
N#Cc1ccc(-c2cc(=O)c3ccc4[nH]c(C(F)(F)F)nc4c3o2)cc1	–	5xFAD mice, 2-month-old, plasma	oral gavage, 10 mg/kg	0.5
CC(C)(C)NCC(SS(=O)(=O)O)c1ccccc1 (centres unmarked)	–	female Swiss Webster mice, plasma	oral, 100 mg/kg	0.5
CC(C)(O)c1ncc([S@](N)(=O)=NC(=O)Nc2c3c(cc4c2CCC4)CCC3)s1	–	human, plasma	oral, 100 mg, single dose, fed, healthy volunteers	5
Cc1ccc(OCC(=O)O)cc1	–	Sprague-Dawley rat Crl:CD(SD), male, plasma	oral, 10 mg/kg/day of parent drug, day 90, 90-day repeated dosing	3
CC(C)(C)N/C=C(/c1ccccc1)S(=O)(=O)O	–	female Swiss Webster mice, plasma	oral, 100 mg/kg	2
[2H]C([2H])([2H])NC(=O)c1ccc(N2C(=S)N(c3ccc(C#N)c(C(F)(F)F)c3)C(=O)C2(C)C)cc1F	–	male human, plasma	oral, 40 mg, single dose, fasted	1
CC(=O)N[C@H](CC(=O)O)C(=O)N[C@H](Cc1c[nH]c2ccccc12)C(=O)N[C@H](Cc1ccccc1)C(=O)N[C@H](CCCCN)C(=O)N[C@H](C)C(=O)N[C@H](Cc1ccccc1)C(=O)N[C@H](Cc1ccc(O)cc1)C(=O)N[C@H](CC(=O)O)C(=O)N[C@H](CCCCN)C(=O)N[C@@H](C(=O)N[C@H](C)C(=O)N[C@H](CCC(=O)O)C(=O)N[C@H](CCCCN)C(=O)N[C@H](Cc1ccccc1)C(=O)N[C@H](CCCCN)C(=O)N[C@H](CCC(=O)O)C(=O)N[C@H](C)C(=O)N[C@H](Cc1ccccc1)C(N)=O)C(C)C	–	statin-treated high-risk CHD patients, plasma	oral, 13 daily doses, censored population	1.3 to 2.4
CC(C)C[C@@H](NC(=O)[C@H](NC(=O)[C@H]1CCCN1)[C@H](C)O)C(=O)N[C@H](Cc1c[nH]cn1)C(=O)N[C@@H](C(=O)N[C@H](Cc1c[nH]cn1)C(=O)N[C@H](CC(N)=O)C(=O)N[C@H](CCCNC(=N)N)C(=O)N[C@H](CCCNC(=N)N)C(=O)N[C@H](CCCNC(=N)N)C(=O)N[C@H](CCCNC(=N)N)C(=O)N[C@H](CCCNC(=N)N)C(N)=O)[C@H](C)O	–	beagle dog, plasma	oral, 20 mg/kg, single dose	2
COc1cc(C)c(Cc2ccc(O)cc2)cc1[C@@H]1S[C@H](CO)[C@@H](O)[C@H](O)[C@H]1O	–	Japanese T2DM patients, plasma	5 mg luseogliflozin, day 1, once daily	5.86 ± 3.08
O=C(CCc1ccc(CNC(C(=O)O)C2CCCCC2)cn1)NO (centres unmarked)	–	human, plasma	oral, 40 mg, multiple doses, once daily, patients	1.12
O=C([O][Ti+2][O]C(=O)c1ccc(P(c2ccccc2)c2ccccc2)cc1)c1ccc(P(c2ccccc2)c2ccccc2)cc1.[Cl][Au].[Cl][Au].c1cc[cH-]c1.c1cc[cH-]c1	ICP-MS, refers to: gold	NOD.CB17-Prkdc scid/J mice, blood or plasma	7.5 mg/kg, after first injection	2.2
CC12CC(c3ccc(S(C)(=O)=O)cc3)C3=C4CCC(=O)C=C4CCC3C1CCC2(O)C(F)(F)C(F)(F)F (centres unmarked)	–	human, plasma	oral, 5 mg, single dose, fasted	1 to 2
NS(=O)(=O)c1ccc(N2N=C(C(F)(F)F)CC2c2ccc(F)cc2F)cc1 (centres unmarked)	–	beagle dog, plasma	oral, 1 mg/kg, single dose	6
CC=C1C(OC2OC(CO)C(O)C(O)C2O)OC=C(C(=O)OC)C1CC(=O)OCC1OC(OCCc2ccc(O)cc2)C(O)C(O)C1O (centres unmarked)	–	Balb/c mice, plasma	oral, 109.2 mg/kg	0.167
N=C(N)NCCC[C@@H]1NC(=O)[C@H](Cc2c[nH]c3ccccc23)NC(=O)[C@@H](CC2CCCCC2)NC(=O)[C@@H]2CCCN2C(=O)[C@@H](NC(=O)CCc2ccccc2)CCCNC1=O	–	C57BL/6J mice, spinal cord	subcutaneous, 1 mg/kg	0.765
O=C(CCc1ccc(CNC(C(=O)OC2CCCC2)C2CCCCC2)cn1)NO (centres unmarked)	–	human, plasma	oral, 20 mg, multiple doses, once daily, patients	0.625
N#Cc1cnc2cc(OCC3CCNCC3)c(F)cc2c1Nc1cc(F)c(OCc2cccc(Cl)n2)cc1Cl	–	male beagle dog, plasma	oral, 5 mg/kg	0.67
CN(C)CCNC(=O)/C=C/[C@H](Cc1ccccc1)Nc1ccnc2cc(Cl)ccc12	–	ICR mice, healthy, plasma	oral, 5 mg/kg	2
CC(C)(Sc1cc[n+]([O-])cc1-c1ccc(C#N)c2ccccc12)C(=O)OC1OC(C(=O)O)C(O)C(O)C1O (centres unmarked)	–	plasma	oral, 15 mg, severe renal impairment, fasted	3
